Results gathered from unrelated publications.
Protocols differ between the studies behind these lines. Converted amounts (≈) assume the structure as drawn.

Compound = C=C[C@]1(C)C[C@@H](OC(=O)CSc2ccc(NC(=O)c3ccco3)cc2)[C@]2(C)[C@H](C)CC[C@]3(CCC(=O)[C@H]32)[C@@H](C)[C@@H]1O; organism = Mycoplasma gallisepticum; assay = sigmoid Emax model, AUC24h/MIC; system = infected chickens; endpoint = Emax; value = -1.07 log10 CFU/mL
Compound = O=C(NCC(O)(Cn1cncn1)c1ccc(F)cc1F)[c-]1cccc1.[Cl-].[Co+3].c1cc[cH-]c1 (racemic); organism = Brugia pahangi; assay = motility, Worminator; system = adult female; setting = 50 µM, 6 d; endpoint = inhibition; value = 0%
Compound = [2H]C([2H])([2H])C1(C([2H])([2H])[2H])NC(=O)N(c2ccc(F)c(C(C)(F)F)c2)C1=O; organism = Schistosoma mansoni; system = juvenile stage, infected mice; setting = oral, 50 mg/kg; scale = reference: untreated infected; endpoint = worm burden reduction; value = 100%
Compound = C=C(NC(=O)c1csc(-c2nc3c(cc2O)-c2nc(cs2)C(=O)NC(C(C)O)C(=O)NC(=C(C)OC)c2nc(cs2)C(=O)NC2c4nc(cs4)C(=O)NC(COC(=O)c4c5c6c(cccc6n4O)COC(=O)C(OC4CC(C)(O)C(N(C)C)C(C)O4)C2OC5)c2nc-3cs2)n1)C(N)=O (centres unmarked); organism = Staphylococcus aureus; assay = microbial growth; system = MRSA; setting = clinical isolate; endpoint = MIC90; value = 0.0156 µg/mL (≈ 0.0109 µM)
Compound = C[C@@H]1C(=O)O[C@@H](C)/C=C/C=C\[C@@H](C)[C@@H]2C=C[C@@H]3C[C@@]4(C)O[C@H]4[C@@H](C)[C@H]3[C@@H]2C(=O)C(Cl)(Cl)C1=O; organism = Staphylococcus aureus; system = MSSA clinical isolate; setting = resistant: PEN,CHL,ERY,SXT,TET; endpoint = MIC; value = 0.025 µg/mL (≈ 0.0505 µM)
Compound = OC(Cn1cncn1)(Cn1cc(-[c-]2cccc2)nn1)c1ccc(F)cc1F.[Cl-].[Co+3].c1cc[cH-]c1 (racemic); organism = Brugia pahangi; assay = motility, Worminator; system = adult female; setting = 50 µM, 1 d; endpoint = inhibition; value = 16%
Compound = CC1=C(Cn2cc(CN3CCC(F)(F)CC3)nn2)C(=O)c2ccccc2C1=O; organism = Schistosoma mansoni; system = adult worms; setting = 25 µM, 72 h; endpoint = killing; value = 51.9%
Compound = CC(=O)OC[C@H]1O[C@@H](Sc2sc(C(=O)c3ccc(Cl)cc3)c(N)c2-c2nc3ccccc3s2)[C@H](OC(C)=O)[C@@H](OC(C)=O)[C@H]1OC(C)=O; organism = hepatitis A virus; assay = plaque reduction; system = HM 175; setting = non-toxic dose NG, mean over three titres; endpoint = viral reduction; value = 13.3%
Compound = CC1=C(Cn2cc(CN3CCC(=O)CC3)nn2)C(=O)c2ccccc2C1=O; organism = Schistosoma mansoni; system = adult worms; setting = 25 µM, 48 h; endpoint = killing; value = 42.8%
Compound = FC(F)(F)c1cccc(CNc2nc(NC3CCN(Cc4ccccc4)CC3)c3nc[nH]c3n2)c1; organism = Cryptococcus neoformans; assay = RNA-seq, measured: CNAG_05384; system = wild type; setting = 48 µg/mL, 3 h; scale = reference: untreated wild type; endpoint = log2 fold change; value = 0.011
Compound = CC(C)(C)NCC(SS(=O)(=O)O)c1ccccc1 (centres unmarked); organism = Schistosoma mansoni; assay = perfusion day 52; system = infected Swiss Webster mice; setting = 400 mg/kg single dose, 1248 h, dosed day 7 post-infection; scale = reference: vehicle control; endpoint = liver weight decrease; value = 9%
